Measured values gathered from unrelated publications.
Each numbered part is a random draw from the data of one study; scales do not carry over between parts. Positions count from the first letter of the parent shown.

Sample 1
Target: TAR DNA-binding protein 43, full length, His tag (TARDBP, Homo sapiens, UniProt Q13148, residues 1-414)
Method: RNA Bind-n-Seq
Molecule type: RNA
Matrix: in vitro
Tested at: 20 nM
Notes: 6-mer, flanks averaged, single round
Added: 150 mM KCl
Relative to: input library
Reading: higher = stronger binding
Oligonucleotide	6-mer enrichment (R)
AAUUUG	0.697
CGACGC	0.821
UGUGCA	0.982
GCCAUA	0.694
AAAUGC	0.659
GAAAUG	0.949
CUGCUU	0.619
GACGGC	1.48

Sample 2
Target: CCNB1, cyclin fold, Cln2 fusion (human)
Method: yeast growth competition, sequencing
Matrix: yeast
Notes: strong parent motif
Relative to: not given
Reading: higher = stronger binding
Starting sequence: viral docking peptide; KGVKRKLFAEDSS; partner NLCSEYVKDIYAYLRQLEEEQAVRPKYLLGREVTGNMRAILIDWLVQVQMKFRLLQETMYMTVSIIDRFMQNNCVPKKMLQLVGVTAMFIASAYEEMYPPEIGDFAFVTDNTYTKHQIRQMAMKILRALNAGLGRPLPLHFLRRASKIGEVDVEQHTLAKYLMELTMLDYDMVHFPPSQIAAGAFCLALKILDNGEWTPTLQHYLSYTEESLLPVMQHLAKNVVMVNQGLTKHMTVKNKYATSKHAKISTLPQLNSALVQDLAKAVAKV
Substitution	normalised enrichment score
L7R	0.951
S13A	2.22
R5H	0.262
S12R	1.59
L7C	0.481
F8K	0.197
R5S	-0.0321
A9N	1.77
V3A	0.849
E10R	0.776

Sample 3
Target: HLA class I histocompatibility antigen, A alpha chain, allele A*80:01 (Homo sapiens, UniProt P04439)
Effect on: peptide-MHC binding
Molecule type: peptide
Tested at: concentration not given
Molecule	binding
KCNPNLHYW	inactive
SWHHTSDDF	inactive
SSLRYGNVL	inactive
YKSRCYVGL	inactive
NYNGLLSSI	inactive
KTVCVQATK	inactive
WTLAKPDFV	inactive
EDFEIFYNL	inactive
HQIWLALRY	active
TEWPQLKVA	inactive
YQVEGATRV	inactive
FTGEYLLRL	inactive
FHARFVQAL	inactive
FLRKNQRAL	inactive
SLFGAAVSL	inactive
EVRKAIEFV	inactive
THADAHTQL	inactive
ISLQEVFTM	inactive
SMNYPNSYK	inactive
YFEYIEENKY	inactive
LITEQFLCY	active
NRDVSFQDL	inactive
ITYLMNRFK	inactive
YMLMGFQLK	inactive
PHAATIRVL	inactive

Sample 4
Target: UBE2D3 UBC core domain (UniProt P61077)
Method: yeast two-hybrid
Matrix: yeast
Notes: mostly zero background
Relative to: not given
Reading: higher = stronger interaction
B1: MDM4 RING domain (UniProt O15151); chain MEDCQNLLKPCSLCEKRPRDGNIIHGRTGHLVTCFHCARRLKKAGASCPICKKEIQLVIKVF
B2: RBCK1 RING domain (UniProt Q9BYM8); chain SLVLNTEPAECPVCYSVLAPGEAVVLRECLHTFCRECLQGTIRNSQEAEVSCPFIDNTYSCSGKLLEREIK
B3: RNF121 RING domain (UniProt Q9H920); chain MPTKHLSDSVCAVCGQQIFVDVSEEGIIENTYRLSCNHVFHEFCIRGWCIVGKKQTCPYCKEKVDLKRMFS
B4: DZIP3 RING domain (UniProt Q86Y13); chain PDEEEEEEEPCVICHENLSPENLSVLPCAHKFHAQCIRPWLMQQGTCPTCRLHVLLPEEFP
B5: DTX2 RING domain (UniProt Q86UW9); chain EELKVPPDEDCIICMEKLSTASGYSDVTDSKAIGSLAVGHLTKCSHAFHLLCLLAMYCNGNKDGSLQCPSCKTIYGEKTGTQ
B6: RFWD3 RING domain (UniProt Q6PCD5); chain ASMDEEEGDTCTICLEQWTNAGDHRLSALRCGHLFGYRCISTWLKGQVRKCPQCNKKARHSDIVV
B7: ZMIZ2 RING domain (UniProt Q8NF64); chain GTIPGTPGPNGEDGVEQTAIKVSLKCPITFRRIQLPARGHDCRHIQCFDLESYLQLNCERGTWRCPVCNKTALLEGLEVDQYMLGILIYIQNSDYEEITIDPTCSWK
Target sequence (chain): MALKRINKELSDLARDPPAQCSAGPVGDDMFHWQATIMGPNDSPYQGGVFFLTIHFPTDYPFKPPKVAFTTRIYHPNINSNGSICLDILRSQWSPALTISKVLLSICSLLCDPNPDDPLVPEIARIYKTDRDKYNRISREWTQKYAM
Molecule	lacZ reporter activity
FDGDVDPDLKCALCHKVLEDPLTTPCGHVFCAGCVLPWVVQEGSCPARCRGRLSAKELN (PDZRN3 RING domain (UniProt Q9UPQ7))	0
GSRLQEINDVCAICYHEFTTSARITPCNHYFHALCLRKWLYIQDTCPMCHQKVYIEDDIK (RNF139 RING domain (UniProt Q8WU17))	0
B1 (MDM4 RING domain)	0
B2 (RBCK1 RING domain)	0
GSDDEEIPFKCFICRQSFQNPVVTKCRHYFCESCALQHFRTTPRCYVCDQQTNGVFNPA (RNF113A RING domain (UniProt O15541))	0
B3 (RNF121 RING domain)	0
B4 (DZIP3 RING domain)	0
B5 (DTX2 RING domain)	0
B6 (RFWD3 RING domain)	9300
NLSELTPYILCSICKGYLIDATTITECLHTFCKSCIVRHFYYSNRCPKCNIVVHQTQPLY (PCGF6 RING domain (UniProt Q9BYE7))	0
KETIKKTTKPCPRCHVPVEKNGGCMHMKCPQPQCRLEWCWNCGCEWNRVCMG (PRKN RING domain (UniProt O60260))	0
B7 (ZMIZ2 RING domain)	0

Repeated from above (sample 4):
Molecule	lacZ reporter activity
B3 (RNF121 RING domain)	0
B4 (DZIP3 RING domain)	0
B5 (DTX2 RING domain)	0
B6 (RFWD3 RING domain)	9300
NLSELTPYILCSICKGYLIDATTITECLHTFCKSCIVRHFYYSNRCPKCNIVVHQTQPLY (PCGF6 RING domain (UniProt Q9BYE7))	0
KETIKKTTKPCPRCHVPVEKNGGCMHMKCPQPQCRLEWCWNCGCEWNRVCMG (PRKN RING domain (UniProt O60260))	0
B7 (ZMIZ2 RING domain)	0
